# Published values pooled from the literature.
# Parts stem from different laboratories: compare values within a part only.

# Sample 1
# Target: Histone acetyltransferase KAT6A, winged helix 1, GST fusion (KAT6A, Homo sapiens, UniProt Q92794, residues 1-85)
# Method: protein binding microarray
# Form: double-stranded DNA, one strand shown
# Sample: in vitro
# Concentration: not given
# Setting: 8-mer, flanks averaged, mean of 2 arrays, mostly near background
# Baseline: not given
# Direction: higher = stronger binding
# Residues (chain): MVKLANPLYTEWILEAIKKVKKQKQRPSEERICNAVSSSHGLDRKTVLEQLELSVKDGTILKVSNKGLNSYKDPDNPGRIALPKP
Strand,E-score
AAGCTCAC,-0.0683
AGCATAAG,-0.103
AATTCTCG,-0.202
TCCTAACA,-0.17
GGCTTCAC,0.0646
ACCCATGG,-0.125
AAGGTCCC,-0.0556
AGGGGCCG,0.267

# Sample 2
# Target: Interferon regulatory factor 7, full length, phosphomimetic (IRF7, Homo sapiens, UniProt Q92985, residues 1-503, S101K/S471D/S472D/S475D/S476D/S477D/S483D/S484D/S487D)
# Method: protein-binding microarray
# Form: double-stranded DNA, one strand shown
# Sample: in vitro
# Concentration: 250 nM
# Setting: 60-bp whole probe
# With: salmon DNA 0.4 mg/ml
# Baseline: random background probes
# Direction: higher = stronger binding
# Construct (chain): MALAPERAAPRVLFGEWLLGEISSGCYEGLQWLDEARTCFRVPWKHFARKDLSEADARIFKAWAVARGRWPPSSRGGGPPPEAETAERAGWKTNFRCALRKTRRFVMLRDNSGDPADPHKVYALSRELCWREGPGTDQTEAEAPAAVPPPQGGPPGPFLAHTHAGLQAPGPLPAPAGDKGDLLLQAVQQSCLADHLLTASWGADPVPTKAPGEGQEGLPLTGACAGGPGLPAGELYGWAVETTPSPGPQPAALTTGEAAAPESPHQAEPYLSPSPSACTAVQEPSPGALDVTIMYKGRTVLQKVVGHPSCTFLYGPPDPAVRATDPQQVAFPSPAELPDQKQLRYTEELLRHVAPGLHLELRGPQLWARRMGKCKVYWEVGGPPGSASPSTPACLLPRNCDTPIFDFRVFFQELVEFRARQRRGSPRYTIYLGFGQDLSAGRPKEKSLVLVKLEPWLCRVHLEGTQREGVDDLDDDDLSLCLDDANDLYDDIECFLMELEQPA
Strand,log fluorescence
GCCTAGCACGACGGTATCCTTATCGTGACGTGCTAGGTCTTGATTCGCTTGACGCTGCTG,-0.0751 z-score
GCCTAGCACCTGGCTTTGACTCTTTCTGTGTGCTAGGTCTTGATTCGCTTGACGCTGCTG,-0.634 z-score
GCCTAGCACTTAGGTTTCCTTTTCTTTTAGTGCTAGGTCTTGATTCGCTTGACGCTGCTG,6.29 z-score
GCCTAGCACGACGCTCTCGGTTTCGGGACGTGCTAGGTCTTGATTCGCTTGACGCTGCTG,4.12 z-score

# Sample 3
# Target: Replicase polyprotein 1ab, polymerase (rep, Severe acute respiratory syndrome coronavirus 2, UniProt P0DTD1)
# Read-out: enzyme activity
# Action: inhibitor
# Concentration: 20 µM
Compound,inhibition [%]
CN(C)CCCC(=O)Nc1ccc(C(=O)Nc2cccc(Nc3ncc(Cl)c(-c4c[nH]c5ccccc45)n3)c2)cc1,14.3
O=C1c2ccccc2CCC1CNCCc1ccc(O)cc1 (centres unmarked),2.16
CCCCN(Cc1ccc(C(=O)NO)cc1)C(=O)Nc1ccccc1,-9
Nc1c(-c2cccc(C(F)(F)F)c2)nsc1C(=O)O,0.54
C[C@@H](O)[C@H]1C(=O)N2C(C(=O)O)=C(S[C@@H]3CN[C@H](CNS(N)(=O)=O)C3)[C@H](C)[C@H]12,1.35
C[C@]12CCC(=O)C=C1CC[C@@H]1[C@@H]2[C@@H](O)C[C@]2(C)C(=O)CC[C@@H]12,-0.26
CN1CC[C@@H](NC(=O)Nc2ccc(C#N)cc2)C[C@@H]1c1nc2ccccc2[nH]1,1.14
C[C@]12CC[C@@H]3c4ccc(O)cc4C[C@@H](CCCCCCCCC[S+]([O-])CCCC(F)(F)C(F)(F)F)[C@H]3[C@@H]1CC[C@@H]2O (some centres unmarked),0.98
COCCc1ccc(OCC(O)CNC(C)C)cc1 (centres unmarked),16
CN(C)CCN1C(=O)c2cccc3cc(N)cc(c23)C1=O,5.63
CN(C)CC(=O)Nc1ccc2[nH]c(=O)c3ccccc3c2c1,-0.54
CC(C)(C)NCC(O)c1cc(O)cc(O)c1 (centres unmarked),17.6
CCC(C)(CN(C)C)OC(=O)c1ccccc1 (centres unmarked),-0.03
NC(=NCCCCCCN=C(N)/N=C(\N)Nc1ccc(Cl)cc1)/N=C(\N)Nc1ccc(Cl)cc1,23
C[N+](C)(C)CCCCCCCCCC[N+](C)(C)C,-4.99
C=CC(C)(C)c1cc(/C=C/C(=O)c2ccc(O)cc2)c(OC)cc1O,-0.72
Cc1cc(O)c2c(c1)C(=O)c1cc(O)cc(O)c1C2=O,2.2

# Sample 4
# Target: Sal-like protein 4, full length isoform B (SALL4, Homo sapiens, UniProt Q9UJQ4-2, residues 1-616)
# Method: universal PBM
# Form: double-stranded DNA, one strand shown
# Sample: in vitro
# Concentration: not given
# Setting: 8-mer, flanks averaged, mean of replicates
# Direction: higher = stronger binding
# Residues (chain): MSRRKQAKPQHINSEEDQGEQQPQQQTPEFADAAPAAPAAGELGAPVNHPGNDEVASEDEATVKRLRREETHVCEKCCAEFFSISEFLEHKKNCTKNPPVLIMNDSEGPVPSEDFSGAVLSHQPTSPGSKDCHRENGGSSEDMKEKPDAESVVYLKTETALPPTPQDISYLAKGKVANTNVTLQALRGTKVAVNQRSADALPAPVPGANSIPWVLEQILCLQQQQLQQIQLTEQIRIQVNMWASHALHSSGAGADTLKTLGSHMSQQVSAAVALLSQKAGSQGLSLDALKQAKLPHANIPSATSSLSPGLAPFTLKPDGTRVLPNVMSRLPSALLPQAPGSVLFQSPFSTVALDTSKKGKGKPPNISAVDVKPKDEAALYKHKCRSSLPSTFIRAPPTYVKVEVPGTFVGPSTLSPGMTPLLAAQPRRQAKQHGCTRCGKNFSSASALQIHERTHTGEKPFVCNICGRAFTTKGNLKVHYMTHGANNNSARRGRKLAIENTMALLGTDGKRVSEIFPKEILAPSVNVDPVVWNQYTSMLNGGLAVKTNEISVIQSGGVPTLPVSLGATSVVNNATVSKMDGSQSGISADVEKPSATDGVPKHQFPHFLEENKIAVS
Strand,E-score
CGGTCTCA,-0.0638
CAGGACAA,0.0432
GAACTCCC,-0.103
CCAAAGCG,-0.209
ACCCTTGA,-0.0898

# Mixed results
Compound,cell line,test,system,conditions,scale,measurement,result
[H]/N=C(/N)N[C@H]1[C@H](O)[C@@H](O)[C@H](O[C@@H]2O[C@@H](C)[C@](O)(C=O)[C@H]2O[C@@H]2O[C@@H](CO)[C@H](O)[C@@H](O)[C@@H]2NC)[C@@H](N/C(N)=N\[H])[C@@H]1O,HEK-293T,"pseudovirus infection, FDA-approved drug library screen",VSV pseudotyped with SARS-CoV-2 spike,"10 µM, 16 h",baseline: vehicle-treated,GFP-positive cells,110%
CN1CCc2nc(C(=O)N[C@@H]3C[C@@H](C(=O)N(C)C)CC[C@@H]3NC(=O)C(=O)Nc3ccc(Cl)cn3)sc2C1.Cc1ccc(S(=O)(=O)O)cc1.O,HEK-293T/ACE2,pseudovirus infection,VSV pseudotyped with SARS-CoV-2 spike,concentration not given,baseline: vehicle-treated,GFP-positive cells,104%
C[Se]CC[C@H](N)C(=O)O,HEK-293T/ACE2,,,"concentration not given, 16 (unit not given)",baseline: vehicle,viability,103%
Nc1ccc(S(=O)(=O)NC(=O)c2ccccc2)cc1,HEK-293T,"pseudovirus infection, FDA-approved drug library screen",VSV pseudotyped with SARS-CoV-2 spike,"10 µM, 16 h",baseline: vehicle-treated,GFP-positive cells,68.8%

# Excerpt of the above (sample 1):
Strand,E-score
ACCCATGG,-0.125
AAGGTCCC,-0.0556
AGGGGCCG,0.267
